Assay results gathered from unrelated publications.
Numbered parts are unrelated; each lists some results of a single study.

Study 1 — method: RNA Bind-n-Seq; form: RNA; sample: in vitro; concentration: 365 nM; reference: no-protein control; reading: higher = stronger binding; measurement: RBNS enrichment (R)
Target: RNA binding protein fox-1 homolog 2, RRM domain, GST-SBP tag (RBFOX2, Homo sapiens, UniProt O43251-10, residues 100-194)
Setting: natural RNA segment, single round, ends assumed
Shared flanks, not repeated: GGGAGUUCUACAGUCCGACGAUC … UGGAAUUCUCGGGUGCCAA
Target sequence (chain): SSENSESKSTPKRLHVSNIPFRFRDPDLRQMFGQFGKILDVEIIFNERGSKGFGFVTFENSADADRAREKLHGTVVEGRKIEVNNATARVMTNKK
AAGGGAUAGUAAUACCUACUUGCAGGUUGUUGUCAUCUGAGUUGAGCACUGGUCACAUUGAAGGUGCUGGGUAAGUGGUAGCUCUUGUUGCUUCCCGUUCAGCGUCACAU: 0.449
CUAGAGCGCUCAGCAGGUGAAGGCAGCAGGGGCCAUGGCCGGGAGCCAGGCCUAGCUUUGAACUGAGUUUCAAGGGCUGCCAAAGAGGGGCAGUGGGUUGGGGUUGUUUU: 0.73
CUGACUCCUUCAGGGUGCUCUUGAUGGGCUGGCUGUAAGGGAGACUCAGUCCCAGCCUCUCCCCUCUACAACUCCUGCCACUGUUGGCCAUGUCGUAAGGCAGCAGCUGU: 0.335
CAAUCAUGGAAAGCAUGUUGUGUGGCUCUGAUCCUAGUAUUUGGGAAACAGAGACAGAAAGGUUAGAUCUUAAAAGUCAAUCUCGGCUACAUAGUGUGAGUCAAGGCCAG: 1.12
GAGCUUUCUAUUUGGCACAUACCAGGGGUCCAGCUACUGGAAGGGCUCUACCCCAAACUCUGAGGACUACCUUACAGCUGACUUAAGUGUCUCACUAAAGCAUGAAAUGU: 0.769
AGACCUCCCCGCUCCAUGACGCUGCCGUGUGCCUACGCAGAUUACAGUGACGAAUACGUGUCAUGAUUUCAUCUCACCCAGUCACCGAGUGGAAAGCAAGCCGAGGUGUA: 0.621
ACCUCAUUCAGAAAAUGUUGGAGUAUGAUCCAGCCAAAAGAAUUACUCUCAGAGAAGCCUUAAAGCAUCCUUUCUUUGACCUUCUGAAGAAAAGUAUAUAGAUCUGUAAU: 0.405
CCAAAUAAGCUUGCUGCCAUGGUCUAGGGUGAGGGUGCUGUCCUGUGCAAAUGUUAAGUUGGAUAUCACACUGUAUAUUUGCUGAGUCUCUUUUCCUAUAGGUUUGCAGA: 0.88
CUCAACUCUCAAUAUUGCUUUAUCAGCAUCUUUUCUCUGUAGCUCCAGGGGAAUCUUUUCUCUAAAACAUUUAUGCCCUUGCUUUGGCUAGAAACACAUUAACUGGUUUA: 0.415
CUUUGGGGAUAUAUGGUACGUUGUUUUUGUUUUUUAGACUUAAUAAAGGACAACACGAGCUGGUCUUGUGUUGCUGGUUCCUAUUCAGUAUUUCCUGGGGAUUGUUUGCU: 0.617
UUCUUGGGUGGACUCAACUGUAACCACAGUUUAUUAGUUGCUUAGAAGUGGAUUUUUAAAAAACAGUUAAAUGUGUGUGCAUAACACACAAGUAAUGACACACUACUAUU: 0.307
UCUUUAAAGUGUAUAUUAGCCACUUAGCAAUCUCUAUAUUCUUUCAAGUAACCAAGCUGUUGACUUUCUUACUACUUGCAGUAGCCUGUCCCCAACUUUUCCAUCCAGUG: 0.219

Study 2 — method: RNAcompete; form: RNA; sample: in vitro; concentration: 20 nM; setting: 7-mer, probes averaged, single round; reference: mean of 7-mers; reading: higher = stronger binding; measurement: 7-mer Z-score
Target: PABPC1L2, full length, GST fusion (mouse, UniProt A0ABA7IW68)
Residues (chain): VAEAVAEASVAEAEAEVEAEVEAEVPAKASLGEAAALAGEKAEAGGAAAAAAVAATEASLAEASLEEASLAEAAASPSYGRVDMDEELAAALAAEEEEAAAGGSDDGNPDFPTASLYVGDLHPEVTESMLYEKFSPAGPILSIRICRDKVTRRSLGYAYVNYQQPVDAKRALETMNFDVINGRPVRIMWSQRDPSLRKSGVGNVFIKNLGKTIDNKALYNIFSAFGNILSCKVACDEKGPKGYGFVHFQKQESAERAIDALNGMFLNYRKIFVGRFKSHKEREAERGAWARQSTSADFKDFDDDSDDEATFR
GACAUAA: 0.57
CCAACCU: -0.253
ACAGGAG: 0.209
ACAACCG: 0.00436
CGUUGCA: -0.246
UUUGAGU: -0.3
CGGGGAC: 0.0642
CCAAGGG: -0.0228
CCCUAAG: -0.296
CUAGGUU: -0.364
ACACACA: 0.2
CUAGGAC: 0.066
CCAAGCC: -0.414
AUCAUUA: -0.135
CUGGUCU: -0.197

Study 3 — method: competition protein-binding microarray; form: double-stranded DNA, one strand shown; sample: in vitro; concentration: 2 µM; together with: Pho4 competitor, 0.05 µM; reading: higher = stronger binding; measurement: fluorescence intensity; shared flanks, not repeated: … GTCTTGATTCGCTTGACGCTGCTG
Target: Centromere-binding protein 1, full length, His-tagged (CBF1, Saccharomyces cerevisiae, UniProt P17106, residues 1-351)
UniProt P17106, sequence (whole entry, looked up): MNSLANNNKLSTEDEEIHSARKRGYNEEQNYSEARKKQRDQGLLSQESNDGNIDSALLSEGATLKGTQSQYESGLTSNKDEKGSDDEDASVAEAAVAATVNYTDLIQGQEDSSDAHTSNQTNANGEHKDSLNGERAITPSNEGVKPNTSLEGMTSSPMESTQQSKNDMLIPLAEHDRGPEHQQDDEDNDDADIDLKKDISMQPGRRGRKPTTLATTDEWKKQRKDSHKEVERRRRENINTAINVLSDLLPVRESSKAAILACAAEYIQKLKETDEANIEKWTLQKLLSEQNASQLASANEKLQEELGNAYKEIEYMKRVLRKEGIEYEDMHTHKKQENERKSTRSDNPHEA
Setting: whole 60-bp probe, lowest competitor level
GCTGCATAAAACAACCATGTGGAGTTTTTACTGTAT: 111 a.u.
CTTCTGTAAATTTTTCACGTGGCCTGACGCGCCCCG: 881 a.u.
AAAGACAGGACTTCGAACGTGTAGGACTTAGACCAG: 64.7 a.u.
AGCAGGAATCATACCCACGCATCTCATTTTGCGTTA: 82.3 a.u.
TGCGCAACAACTTGTCACAGAACTTTATGTCTAGAA: 75.2 a.u.
TCTACTGAAATATCGCACGTCACCGGTACCAACGGC: 79 a.u.
TAAACAATACTTAAAAACGTGTTGGAACTTTTACGA: 151 a.u.
TCTATGTAACTACGTCTTGTGATGACCGGTATAGCT: 87 a.u.
GGGCTTCGGAGTTAGCACGTTGAAAGGCATCTGCCA: 75.1 a.u.
ACCATTGTAGTTATCAACGTGAGCCATAATAGGTTC: 310 a.u.
GTCTTGTCTCATTGCTGGGTGGGTGTCCCCACTTCA: 78.8 a.u.
CGCGAATGAGTTTGCCACGTCGTTTGCCCCGATGTT: 70.5 a.u.
TGCGCAACAACTTGACCGGTGGGTGTATGTCTAGAA: 59 a.u.
CATACCCAACCTTGTCTAGTGGGTGAAGATATTTGT: 78.9 a.u.
CCGCCCTTCAAAGTCCTCGTGCTGTGTATCAATTCC: 137 a.u.
TGCAGAACGCAAAATCGCGTGCGGAAGGAACGAGGA: 78.8 a.u.
CTAGAGCCACAAAAGCACGTGCTTTGGGTGCTTTGG: 1840 a.u.

Single results of other studies
PhoQ, residues 284 288 289 292 302 303 GANMMA
fold induction (PhoP, residues 12 14 15 18 19 AQCLL (Escherichia coli, UniProt P23836); Sort-seq, item: YFP reporter; E. coli; PhoQ-PhoP variant library, together with: 10 µM Mg2+; reference: high Mg2+ state, higher = stronger signaling): 2.53

Some of these lines once more (study 1):
CUGACUCCUUCAGGGUGCUCUUGAUGGGCUGGCUGUAAGGGAGACUCAGUCCCAGCCUCUCCCCUCUACAACUCCUGCCACUGUUGGCCAUGUCGUAAGGCAGCAGCUGU: 0.335
CAAUCAUGGAAAGCAUGUUGUGUGGCUCUGAUCCUAGUAUUUGGGAAACAGAGACAGAAAGGUUAGAUCUUAAAAGUCAAUCUCGGCUACAUAGUGUGAGUCAAGGCCAG: 1.12
GAGCUUUCUAUUUGGCACAUACCAGGGGUCCAGCUACUGGAAGGGCUCUACCCCAAACUCUGAGGACUACCUUACAGCUGACUUAAGUGUCUCACUAAAGCAUGAAAUGU: 0.769
AGACCUCCCCGCUCCAUGACGCUGCCGUGUGCCUACGCAGAUUACAGUGACGAAUACGUGUCAUGAUUUCAUCUCACCCAGUCACCGAGUGGAAAGCAAGCCGAGGUGUA: 0.621
ACCUCAUUCAGAAAAUGUUGGAGUAUGAUCCAGCCAAAAGAAUUACUCUCAGAGAAGCCUUAAAGCAUCCUUUCUUUGACCUUCUGAAGAAAAGUAUAUAGAUCUGUAAU: 0.405
CCAAAUAAGCUUGCUGCCAUGGUCUAGGGUGAGGGUGCUGUCCUGUGCAAAUGUUAAGUUGGAUAUCACACUGUAUAUUUGCUGAGUCUCUUUUCCUAUAGGUUUGCAGA: 0.88
